Measurements from different studies.
± marks the error that the study gave.
TPR: Trypanothione reductase (TPR, Trypanosoma brucei brucei, UniProt P39051)
UniProt P39051, sequence (whole entry, looked up): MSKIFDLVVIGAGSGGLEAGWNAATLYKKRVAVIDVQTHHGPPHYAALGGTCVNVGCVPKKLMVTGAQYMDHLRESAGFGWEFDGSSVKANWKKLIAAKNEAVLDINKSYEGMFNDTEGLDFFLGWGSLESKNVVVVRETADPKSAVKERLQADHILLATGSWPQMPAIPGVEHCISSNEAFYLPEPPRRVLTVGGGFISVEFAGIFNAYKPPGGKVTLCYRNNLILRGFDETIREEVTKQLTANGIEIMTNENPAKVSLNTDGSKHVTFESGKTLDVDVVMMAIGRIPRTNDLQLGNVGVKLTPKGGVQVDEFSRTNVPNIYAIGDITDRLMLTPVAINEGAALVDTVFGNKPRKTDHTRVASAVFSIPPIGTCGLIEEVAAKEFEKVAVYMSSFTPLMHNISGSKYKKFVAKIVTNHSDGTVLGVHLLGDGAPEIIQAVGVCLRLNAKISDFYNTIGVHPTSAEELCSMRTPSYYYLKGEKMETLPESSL
FGFR2: Fibroblast growth factor receptor 2 (FGFR2, Homo sapiens, UniProt P21802)
UniProt P21802, sequence (whole entry, looked up): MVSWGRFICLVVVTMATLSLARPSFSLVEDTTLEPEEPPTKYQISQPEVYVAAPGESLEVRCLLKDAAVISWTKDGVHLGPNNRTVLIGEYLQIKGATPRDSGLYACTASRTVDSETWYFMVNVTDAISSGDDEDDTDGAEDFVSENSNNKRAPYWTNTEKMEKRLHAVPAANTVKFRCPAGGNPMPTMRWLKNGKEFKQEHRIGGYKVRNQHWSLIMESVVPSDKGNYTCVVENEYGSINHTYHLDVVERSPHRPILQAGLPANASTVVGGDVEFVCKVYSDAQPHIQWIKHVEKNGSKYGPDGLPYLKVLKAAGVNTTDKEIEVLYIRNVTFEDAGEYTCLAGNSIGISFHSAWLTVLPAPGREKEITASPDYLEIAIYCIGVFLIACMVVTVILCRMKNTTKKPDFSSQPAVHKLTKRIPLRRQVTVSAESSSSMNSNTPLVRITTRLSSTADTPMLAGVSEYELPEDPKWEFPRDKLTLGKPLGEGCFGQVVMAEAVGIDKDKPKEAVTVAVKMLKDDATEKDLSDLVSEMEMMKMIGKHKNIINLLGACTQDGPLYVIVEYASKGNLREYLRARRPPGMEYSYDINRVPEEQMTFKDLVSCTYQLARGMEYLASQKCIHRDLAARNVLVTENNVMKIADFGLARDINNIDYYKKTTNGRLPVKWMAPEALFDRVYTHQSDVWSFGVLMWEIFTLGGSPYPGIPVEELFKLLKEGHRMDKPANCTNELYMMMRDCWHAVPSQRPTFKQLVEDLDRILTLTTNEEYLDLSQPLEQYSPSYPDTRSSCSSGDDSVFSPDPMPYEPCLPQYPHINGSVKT
PTGS1: Prostaglandin G/H synthase 1 (PTGS1, Homo sapiens, UniProt P23219)
UniProt P23219, sequence (whole entry, looked up): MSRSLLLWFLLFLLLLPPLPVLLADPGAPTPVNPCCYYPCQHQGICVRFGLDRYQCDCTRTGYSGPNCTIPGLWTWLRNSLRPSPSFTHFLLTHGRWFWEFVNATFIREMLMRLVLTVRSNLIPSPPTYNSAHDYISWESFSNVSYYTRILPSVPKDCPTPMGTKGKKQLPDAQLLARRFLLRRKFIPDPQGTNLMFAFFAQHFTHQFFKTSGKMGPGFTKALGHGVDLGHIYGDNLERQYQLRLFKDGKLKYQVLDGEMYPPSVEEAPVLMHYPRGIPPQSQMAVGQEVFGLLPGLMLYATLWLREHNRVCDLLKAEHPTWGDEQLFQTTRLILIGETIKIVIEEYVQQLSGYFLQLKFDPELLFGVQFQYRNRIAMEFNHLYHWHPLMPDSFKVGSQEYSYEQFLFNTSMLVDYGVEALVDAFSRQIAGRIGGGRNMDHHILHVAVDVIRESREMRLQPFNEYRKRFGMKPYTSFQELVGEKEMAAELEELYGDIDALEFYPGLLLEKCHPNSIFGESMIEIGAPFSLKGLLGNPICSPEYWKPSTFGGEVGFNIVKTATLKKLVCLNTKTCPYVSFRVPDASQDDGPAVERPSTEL
UniProt Q6SZW1, sequence (whole entry, looked up): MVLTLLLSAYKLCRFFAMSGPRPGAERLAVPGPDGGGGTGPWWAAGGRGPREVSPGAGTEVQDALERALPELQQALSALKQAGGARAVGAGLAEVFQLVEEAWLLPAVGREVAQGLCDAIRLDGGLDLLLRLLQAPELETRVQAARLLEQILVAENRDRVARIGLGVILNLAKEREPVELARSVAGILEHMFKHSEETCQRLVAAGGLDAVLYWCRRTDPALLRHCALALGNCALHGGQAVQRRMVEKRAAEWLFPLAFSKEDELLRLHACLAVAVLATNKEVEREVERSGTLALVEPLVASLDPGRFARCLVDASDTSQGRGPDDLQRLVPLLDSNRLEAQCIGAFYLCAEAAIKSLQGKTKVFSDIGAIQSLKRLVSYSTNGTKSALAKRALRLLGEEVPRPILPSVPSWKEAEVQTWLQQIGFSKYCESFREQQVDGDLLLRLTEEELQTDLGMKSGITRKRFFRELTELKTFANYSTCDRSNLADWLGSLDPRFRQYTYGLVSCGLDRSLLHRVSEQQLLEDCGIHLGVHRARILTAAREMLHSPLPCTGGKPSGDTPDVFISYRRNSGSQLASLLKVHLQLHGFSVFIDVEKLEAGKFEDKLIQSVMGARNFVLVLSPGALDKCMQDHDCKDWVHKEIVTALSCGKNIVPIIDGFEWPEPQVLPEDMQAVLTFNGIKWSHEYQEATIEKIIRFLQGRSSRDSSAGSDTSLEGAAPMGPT
UniProt Q96PN6, sequence (whole entry, looked up): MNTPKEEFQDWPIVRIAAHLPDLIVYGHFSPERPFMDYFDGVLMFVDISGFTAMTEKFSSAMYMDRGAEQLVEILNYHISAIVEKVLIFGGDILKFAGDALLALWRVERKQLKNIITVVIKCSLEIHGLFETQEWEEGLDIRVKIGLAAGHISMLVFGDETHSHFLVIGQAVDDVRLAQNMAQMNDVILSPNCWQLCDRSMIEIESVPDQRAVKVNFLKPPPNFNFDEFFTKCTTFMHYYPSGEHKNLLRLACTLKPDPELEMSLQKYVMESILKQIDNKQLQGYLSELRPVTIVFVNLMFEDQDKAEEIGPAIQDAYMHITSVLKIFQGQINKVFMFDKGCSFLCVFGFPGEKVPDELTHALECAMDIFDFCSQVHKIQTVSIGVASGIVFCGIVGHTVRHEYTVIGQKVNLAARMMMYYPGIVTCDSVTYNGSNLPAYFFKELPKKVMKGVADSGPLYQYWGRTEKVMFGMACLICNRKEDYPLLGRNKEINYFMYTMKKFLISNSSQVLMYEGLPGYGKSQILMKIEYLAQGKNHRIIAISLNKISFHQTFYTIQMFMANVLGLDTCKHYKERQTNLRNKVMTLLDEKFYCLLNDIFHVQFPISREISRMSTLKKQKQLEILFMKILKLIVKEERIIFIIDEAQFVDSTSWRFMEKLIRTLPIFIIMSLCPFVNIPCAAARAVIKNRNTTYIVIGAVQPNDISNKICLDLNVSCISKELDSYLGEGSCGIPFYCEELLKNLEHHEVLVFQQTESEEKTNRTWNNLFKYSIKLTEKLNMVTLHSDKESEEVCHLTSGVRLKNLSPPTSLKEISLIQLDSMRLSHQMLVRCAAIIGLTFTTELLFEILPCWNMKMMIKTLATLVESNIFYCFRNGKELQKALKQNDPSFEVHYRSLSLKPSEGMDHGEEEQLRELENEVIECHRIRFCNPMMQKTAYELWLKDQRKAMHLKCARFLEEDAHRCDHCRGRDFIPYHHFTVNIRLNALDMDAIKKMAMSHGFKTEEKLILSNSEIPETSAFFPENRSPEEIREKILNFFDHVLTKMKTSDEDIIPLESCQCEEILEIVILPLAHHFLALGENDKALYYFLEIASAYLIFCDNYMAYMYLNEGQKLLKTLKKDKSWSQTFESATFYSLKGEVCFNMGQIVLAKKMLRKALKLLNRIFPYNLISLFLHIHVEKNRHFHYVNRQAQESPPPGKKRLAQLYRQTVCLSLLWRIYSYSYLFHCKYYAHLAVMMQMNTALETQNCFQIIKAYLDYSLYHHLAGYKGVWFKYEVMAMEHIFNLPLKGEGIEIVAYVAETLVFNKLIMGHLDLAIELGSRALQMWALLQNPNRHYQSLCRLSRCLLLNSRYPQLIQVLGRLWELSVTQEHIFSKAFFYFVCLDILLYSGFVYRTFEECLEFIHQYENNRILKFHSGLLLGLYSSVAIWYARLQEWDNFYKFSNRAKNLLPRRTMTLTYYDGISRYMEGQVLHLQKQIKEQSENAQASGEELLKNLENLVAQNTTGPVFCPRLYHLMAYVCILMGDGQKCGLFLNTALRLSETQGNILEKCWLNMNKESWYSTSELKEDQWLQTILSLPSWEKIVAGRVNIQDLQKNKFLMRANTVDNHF
UniProt P21761, sequence (whole entry, looked up): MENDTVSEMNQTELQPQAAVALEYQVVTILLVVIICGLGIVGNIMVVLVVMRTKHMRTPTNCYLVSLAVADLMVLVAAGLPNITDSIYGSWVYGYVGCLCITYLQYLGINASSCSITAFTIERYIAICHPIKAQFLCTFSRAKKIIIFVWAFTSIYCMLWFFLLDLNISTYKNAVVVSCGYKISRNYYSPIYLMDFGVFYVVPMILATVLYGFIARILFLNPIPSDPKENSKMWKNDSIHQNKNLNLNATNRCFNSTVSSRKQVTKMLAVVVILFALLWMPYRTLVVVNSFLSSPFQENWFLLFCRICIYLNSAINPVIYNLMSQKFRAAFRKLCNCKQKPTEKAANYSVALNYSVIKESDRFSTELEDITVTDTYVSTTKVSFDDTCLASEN
UniProt Q96KS0, sequence (whole entry, looked up): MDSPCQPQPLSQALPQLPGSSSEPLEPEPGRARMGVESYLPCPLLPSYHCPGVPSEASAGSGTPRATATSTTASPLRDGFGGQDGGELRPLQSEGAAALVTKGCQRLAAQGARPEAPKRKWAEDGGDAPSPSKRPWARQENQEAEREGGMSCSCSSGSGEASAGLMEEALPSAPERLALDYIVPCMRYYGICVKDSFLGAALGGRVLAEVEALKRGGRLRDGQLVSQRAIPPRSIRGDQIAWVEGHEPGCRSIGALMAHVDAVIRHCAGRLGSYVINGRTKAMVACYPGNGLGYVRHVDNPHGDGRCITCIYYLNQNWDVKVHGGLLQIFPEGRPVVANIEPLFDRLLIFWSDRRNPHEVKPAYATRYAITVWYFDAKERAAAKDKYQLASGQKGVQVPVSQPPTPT

| Compound | target | assay | test system | conditions | IC50 |
| --- | --- | --- | --- | --- | --- |
| C[C@](C(=O)NC1CCC(F)(F)CC1)(c1cncnc1)N(C(=O)[C@H](F)Cl)c1ccc(OC(F)(F)F)cc1 | Cytochrome P450 2C9 (CYP2C9, Homo sapiens, UniProt P11712) | enzyme activity, inhibitor | – | 10 (unit not given) | > 50 µM |
| NC(=O)CNC(=O)[C@@H]1CCCN1C(=O)[C@H](Cc1ccc(O)cc1)NC(=O)[C@H](Cc1c[nH]c2ccccc12)NC(=O)[C@@H](Cc1c[nH]c2ccccc12)NC(=O)[C@H](Cc1c[nH]cn1)NC(=O)[C@H](CO)NC(=O)[C@H](Cc1c[nH]c2ccccc12)NC(=O)[C@H](Cc1c[nH]cn1)NC(=O)[C@@H]1CCC(=O)N1 | Gonadotropin-releasing hormone receptor (Rattus norvegicus, UniProt P30969) | ligand displacement in cells, radioligand | – | – | 0.0034 µM |
| CC(=O)N[C@H]1[C@@H](OC(=O)NCCCOCCOCCOCCCNC(=O)O[C@H]2O[C@H](CNC(=O)OCCOCCOCCOCCOCCOCCOC(=O)NC[C@H]3O[C@H](OC(=O)NCCCOCCOCCOCCCNC(=O)O[C@H]4O[C@H](CO)[C@@H](O)[C@H](O)[C@H]4NC(C)=O)[C@H](NC(C)=O)[C@@H](O)[C@@H]3O)[C@@H](O)[C@H](O)[C@H]2NC(C)=O)O[C@H](CO)[C@@H](O)[C@@H]1O | wheat germ agglutinin (Triticum vulgaris) | binding to immobilised GlcNAc, inhibitor, enzyme-linked lectin | – | added: HRP-labelled WGA | 0.056 µM |
| CC(C)C[C@H](NC(=O)[C@H](CC(N)=O)NC(=O)[C@H](CC(C)C)NC(=O)[C@@H](NC(=O)[C@@H](NC(=O)[C@@H]1CCCN1C(=O)[C@H](CCCNC(=N)N)NC(=O)[C@H](CCCCN)NC(=O)[C@@H]1CCCN1)[C@@H](C)O)[C@@H](C)O)C(=O)N[C@@H](Cc1ccccc1)C(=O)NCCCCCC(=O)N[C@@H](CCCNC(=N)N)C(=O)N[C@@H](CCCNC(=N)N)C(=O)N[C@@H](CCCNC(=N)N)C(=O)N[C@@H](CCC(N)=O)C(=O)N[C@@H](CCCNC(=N)N)C(=O)N[C@@H](CCCNC(=N)N)C(=O)N[C@@H](CCCCN)C(=O)N[C@@H](CCCCN)C(=O)N[C@@H](CCCNC(=N)N)C(=O)NCC(N)=O | Mapk14 (Mus musculus, UniProt P47811) | enzyme activity, inhibitor, radiometric | – | pH 7.5 | 13.7 µM |
| Nc1nc2ccc(Oc3ccc4nc(N)sc4c3)cc2s1 | Sensor histidine protein kinase/phosphatase WalK (walK, Streptococcus pneumoniae, UniProt Q8DPL8) | enzyme activity, ATP-competitive inhibitor | – | – | 75 µM |
| Nc1ncc(-c2cnn(C3CCNCC3)c2)cc1-c1nc2ccc(Oc3ccccc3)cc2o1 | JAK2 (Homo sapiens, UniProt O60674) | enzyme activity, inhibitor, TR-FRET | – | – | 1.1 µM |
| CC(C)n1nc(-c2cc(Br)ccc2F)nc2c(=O)n(C)c(=O)nc1-2 | TPR | inhibitor, DTNB-coupled colourimetric | – | added: substrate at Km | > 50 µM |
| Oc1ccc(CCC(O)CC(O)CCc2ccc(O)cc2)cc1 (centres unmarked) | Dopamine beta-hydroxylase (Bos taurus, UniProt P15101) | enzyme activity, inhibitor | – | – | 941 µM |
| N#Cc1c(O)nsc1Nc1ccccc1C(F)(F)F | SARM1 (Homo sapiens, UniProt Q6SZW1) | enzyme activity, inhibitor | – | – | 0.37 µM |
| CC(C)(C)c1cc(=O)n2ncc(-c3ccc(F)cc3)c2[nH]1 | CHD1L (Homo sapiens, UniProt Q86WJ1) | ATPase activity, inhibitor | – | 1 h, 37 °C, added: ATP 10 µM | 4.57 µM |
| CC[C@H](C)[C@H](NC(=O)CNC(=O)C1CCN(C(=O)[C@H](CO)NC(=O)[C@@H](N)Cc2c[nH]cn2)CC1)C(=O)N[C@@H](Cc1ccccc1)C(=O)N[C@H](C(=O)N[C@@H](CC(=O)O)C(=O)N[C@@H](CO)C(=O)N[C@@H](Cc1ccc(O)cc1)C(=O)N[C@@H](CO)C(=O)N[C@@H](CCCNC(=N)N)C(=O)N[C@@H](Cc1ccc(O)cc1)C(=O)N[C@@H](CCCNC(=N)N)C(=O)N[C@@H](CCCCN)C(=O)NC(C)(C)C(=O)N[C@@H](C)C(=O)N[C@@H](C)C(=O)N[C@H](C(=O)N[C@@H](CCCCN)C(=O)N[C@@H](CCCCN)C(=O)N[C@@H](Cc1ccc(O)cc1)C(=O)N[C@@H](CC(C)C)C(=O)N[C@@H](C)C(=O)N[C@@H](C)C(=O)N[C@H](C(=O)N[C@@H](CC(C)C)C(=O)NC(C)(C)C(=O)N[C@@H](CCCCN)C(=O)N[C@@H](CCCNC(=N)N)C(=O)N[C@@H](Cc1ccc(O)cc1)C(=O)N[C@@H](CCCCN)C(=O)N[C@@H](CCC(N)=O)C(=O)N[C@@H](CCCCN)C(=O)N[C@H](C(=O)N[C@@H](CCCCN)C(=O)N[C@@H](CC(N)=O)C(=O)N[C@H](CCCCN)C(N)=O)C(C)C)C(C)C)C(C)C)[C@@H](C)O | ADCYAP1R1 (Homo sapiens, UniProt P41586) | ligand displacement, radioligand | – | – | 0.851 µM |
| Cn1c(=O)c2c(nc(CN3CCN(C(=O)C4CC4)CC3)n2Cc2ccccc2)n(C)c1=O | ALDH2 (Homo sapiens, UniProt P05091) | enzyme activity, inhibitor | – | – | > 57 µM |
| CCn1c(-c2cc(NC(=O)c3cnccn3)n[nH]2)cc2ccc(OC)cc21 | CSNK2A1 (Homo sapiens, UniProt P68400) | – | – | – | 0.97 ± 0.14 µM |
| COc1cccc(Cc2c[nH]c3ncc(C(F)(F)F)cc23)c1 | FGFR2 | enzyme activity, inhibitor | – | – | 0.093 µM |
| CCn1nc(-c2ccc(C(F)(F)F)cc2)nc2c(=O)n(C)c(=O)nc1-2 | TPR | inhibitor, DTNB-coupled colourimetric | – | added: substrate at Km | 15.2 µM |
| COc1ccc(-c2cn(C)c3ncnc(N)c23)cc1 | FGFR2 | Caliper mobility shift | – | 30 min preincubation, added: 100 µM ATP | 1.6 µM |
| O=C(c1ccc(I)cc1)N1CCN(c2ccc(F)cc2)CC1 | SEC14 (Saccharomyces cerevisiae, UniProt P24280) | enzyme activity, inhibitor, radiometric | – | – | 0.589 µM |
| COCCCN1CCc2c(Cc3ccc(Cl)cc3)[nH]c3c(OC(F)F)ccc(c23)C1=O | PDE7A (Homo sapiens, UniProt Q13946) | enzyme activity, inhibitor | – | – | > 10 µM |

| Compound | target | assay | test system | conditions | IC50 |
| --- | --- | --- | --- | --- | --- |
| Cc1n[nH]cc1-c1ccccc1Cl | Adenylate cyclase type 10 (Homo sapiens, UniProt Q96PN6) | enzyme activity, inhibitor | – | – | > 300 µM |
| CC(C)n1cnc(C[C@H](NC(=O)C2CCCCN2)C(=O)N2CCC[C@H]2C(N)=O)c1 (some centres unmarked) | Thyrotropin-releasing hormone receptor (Mus musculus, UniProt P21761) | ligand displacement, radioligand | – | – | > 50 µM |
| Nc1ncnc2c1ncn2C1OC(COP(=O)(O)O)C(O)C1O (centres unmarked) | Fructose-1,6-bisphosphatase 1 (Mus musculus, UniProt Q9QXD6, G27P) | enzyme activity, inhibitor | – | His-tagged mouse G27P mutant | 4420 µM |
| CNC(=O)c1cc(C)ccc1NC(=O)c1ccc(-c2c(C)ccc3[nH]ncc23)c(C)c1 | EPHA4 (Homo sapiens, UniProt P54764) | target engagement in cells, BRET | – | – | 0.173 µM |
| N[C@@H](CCC(=O)N[C@@H](CS[Se]Cc1ccc(C(=O)Nc2cc(C(F)(F)F)c(Br)c(C(F)(F)F)c2)cc1)C(=O)NCC(=O)O)C(=O)O | PTPN5 (Homo sapiens, UniProt P54829) | enzyme activity, inhibitor | – | added: pNPP, GSH 1 mM | 6.2 ± 2.9 µM |
| Nc1ncnc2c1ncn2CCOCP(=O)(O)OP(=O)(O)C(F)(F)P(=O)(O)O | Gag-Pol polyprotein, reverse transcriptase (gag-pol, Human immunodeficiency virus 1, UniProt P03366) | reverse transcriptase activity, inhibitor | – | – | 403 ± 75.5 µM |
| Cc1ccncc1-c1c[nH]n(-c2ccccn2)c1=O | EGLN2 (Homo sapiens, UniProt Q96KS0) | enzyme activity, inhibitor, europium VBC binding | – | 10 µM FeSO4, 2 mM ascorbate, added: 20 µM 2-oxoglutarate | 0.53 µM |
| Cc1cc(O)cc2c1C(=O)c1c(cc3oc(=O)cc(C)c3c1O)C2=O | mushroom tyrosinase | enzyme activity | – | added: L-DOPA | 52.9 ± 0.65 µg/mL |
| COCCOCCOc1cc2nccc(Oc3ccc(NC(=O)NC4CC4)c(Cl)c3)c2cc1C(N)=O | FGFR4 (Homo sapiens, UniProt P22455) | enzyme activity, inhibitor | – | – | > 0.1 µM |
| CN(C)c1ccc2c(c1)C(=O)N([C@H](CS)C(=O)O)C2=O | Metallo-beta-lactamase type 2 (Serratia marcescens, UniProt P52699) | enzyme activity, inhibitor | – | pH 7.0, added: chromacef 25 µM | 1.5 ± 0.2 µM |
| COc1ccc(C(=O)CCc2cc(C(CCc3ccc(O)cc3OC)c3ccc(O)cc3)c(O)cc2OC)cc1 (racemic) | PTGS1 | enzyme activity, inhibitor | – | – | > 1 µM |
| NS(=O)(=O)c1ccc(-n2cc(CNc3ccc(F)cc3)c(-c3ccc(OCc4ccccc4)cc3)n2)cc1 | PTGS1 | enzyme activity, inhibitor, absorbance | – | – | 63.8 µM |
| C=C(NC(=O)C(=C)NC(=O)c1csc(C2=NC3c4csc(n4)C4NC(=O)c5csc(n5)C(C(C)(O)C(C)O)NC(=O)C5CSC(=N5)C(=CC)NC(=O)C(C(C)O)NC(=O)c5csc(n5)C3(CC2)NC(=O)C(=CC)NC(=O)C(=C)NC(=O)C(C)NC(=O)C(C(C)CC)NC2C=Cc3c(C(C)O)cc(nc3C2O)C(=O)OC4C)n1)C(N)=O (centres unmarked) | Proteasome subunit beta type-7, in 20S proteasome (PSMB7, Homo sapiens, UniProt Q99436) | trypsin-like activity, inhibitor | purified 20S proteasome | 15 min preincubation, 37 °C, added: Boc-Leu-Arg-Arg-AMC substrate | 0.29 ± 0.03 µM |
| CC(=O)NCCN(CCC(=O)NCCN(CCC(=O)NCCN(CCC(=O)NCCC(N)=O)C(=O)[C@@H](N)CCCNC(=N)N)C(=O)[C@@H](N)Cc1ccccc1)C(=O)[C@@H](N)Cc1ccccc1 | HIV-1 TAR RNA | Tat/TAR complex displacement, FRET | – | room temperature, added: 10 nM Tat/TAR complex | 108.1 ± 0.8 µM |
| CC(C)NCc1ccc(C[C@@H]2NC(=O)[C@@H](Cc3c[nH]c4ccccc34)NC(=O)[C@H](Cc3ccccc3)NC(=O)[C@H](NC(=O)[C@@H](N)Cc3ccc(Cl)cc3)CSSC[C@@H](C(=O)N[C@@H](Cc3ccc4ccccc4c3)C(N)=O)NC(=O)[C@H](Cc3ccc(O)c(I)c3)NC2=O)cc1 | SSTR3 (Homo sapiens, UniProt P32745) | ligand displacement, radioligand | – | cell membranes | > 1 µM |
| COc1cc(-c2nc3ccc(C(=O)NCCCN4CCN(c5ccccc5)C(=O)C4)cc3n2C2CCC2)cc(OC)c1OC | ACVR1 (Homo sapiens, UniProt Q04771) | target engagement in cells, BRET | – | – | 1.82 µM |
| COc1ccc(C(=O)/C=C(\O)C(F)(F)C(F)(F)F)c(O)c1 | Formate-nitrite transporter (FNT, Plasmodium ovale, UniProt A0A1D3TGZ2) | L-lactate transport, inhibitor | yeast | pH 6.8, added: 14C-L-lactate 1 mM | 0.16 ± 0.01 µM |

For quick reference, copied from above:
| Compound | target | assay | test system | conditions | IC50 |
| --- | --- | --- | --- | --- | --- |
| CC(C)n1nc(-c2cc(Br)ccc2F)nc2c(=O)n(C)c(=O)nc1-2 | TPR | inhibitor, DTNB-coupled colourimetric | – | added: substrate at Km | > 50 µM |
| CC(C)(C)c1cc(=O)n2ncc(-c3ccc(F)cc3)c2[nH]1 | CHD1L (Homo sapiens, UniProt Q86WJ1) | ATPase activity, inhibitor | – | 1 h, 37 °C, added: ATP 10 µM | 4.57 µM |
| CNC(=O)c1cc(C)ccc1NC(=O)c1ccc(-c2c(C)ccc3[nH]ncc23)c(C)c1 | EPHA4 (Homo sapiens, UniProt P54764) | target engagement in cells, BRET | – | – | 0.173 µM |
| CC(C)n1cnc(C[C@H](NC(=O)C2CCCCN2)C(=O)N2CCC[C@H]2C(N)=O)c1 (some centres unmarked) | Thyrotropin-releasing hormone receptor (Mus musculus, UniProt P21761) | ligand displacement, radioligand | – | – | > 50 µM |
